# Experimental data gathered from unrelated publications.
# Each numbered part is a random draw from the data of one study; scales do not carry over between parts. Several values in a cell are separate wells, animals, samples, runs or records.

# Block 1
# SMILES: COc1ccc(-c2c(Nc3ccccn3)[nH]c3c(C4=CCCCC4)c(-c4ccccc4)nn3c2=O)cc1
# Medium: plasma
# Route: oral
assay,system,setting,"plasma concentration, mean"
,cancer patients,"50 mg, 0.5 h post-dose, single dose",91.5 ng/mL
LC-MS/MS,human,"50 mg once daily, 0.5 h, cycle 1",1090 ng/mL
,human patients,"150 mg once daily, 0.5 h, cycle 1",4890 ng/mL
LC-MS/MS,human,"200 mg twice daily, 72 h, single dose",456 ng/mL
LC-MS/MS,human,"50 mg once daily, 2 h, cycle 1",1320 ng/mL
LC-MS/MS,human,"50 mg once daily, 3 h, cycle 1",1570 ng/mL
,human patients,"100 mg once daily, 0 h, cycle 1",3600 ng/mL
,cancer patients,"150 mg, 1 h post-dose, single dose",706 ng/mL
,cancer patients,"100 mg, 72 h post-dose, single dose",253 ng/mL
,cancer patients,"150 mg, 48 h post-dose, single dose",495 ng/mL

# Block 2
# Organism: Sarcocystis neurona
# Effect on: parasite growth
# Concentration: concentration not given
# Setting: secondary screen
SMILES,inhibition [%]
CC(CCCCC(=O)Nc1ccc(C(F)(F)F)cc1)NCCc1cnc[nH]1 (centres unmarked),-7.8
COc1cc(OC)c(C(=O)CCCN2CCCC2)c(OC)c1.Cl,-42.9
NC(=O)OCC(COC(N)=O)c1ccccc1.O,-25.7
CN1CCN(c2nc3cc(C(F)(F)F)ccc3n3cccc23)CC1,-3.6
CN1[C@@H]2CC[C@H]1C[C@@H](OC(c1ccccc1)c1ccccc1)C2.CS(=O)(=O)O,-22.8
Cl.O=C(O)/C=C/c1ccc(Cn2ccnc2)cc1,-22.8
CS(=O)(=O)O.O=C(O[C@H]1C[C@H]2CC3C[C@@H](C1)N2CC3=O)c1c[nH]c2ccccc12,-26.9
CN(Cc1cnc2nc(N)nc(N)c2n1)c1ccc(C(=O)N[C@@H](CCC(=O)O)C(=O)O)cc1.O,-27.6

# Block 3
# Target: Aurora kinase C (AURKC, Homo sapiens, UniProt Q9UQB9)
# Effect on: enzyme activity
# Mode: inhibitor
# Concentration: 0.5 µM
# Reference: control
# Target sequence (Q9UQB9 1-309): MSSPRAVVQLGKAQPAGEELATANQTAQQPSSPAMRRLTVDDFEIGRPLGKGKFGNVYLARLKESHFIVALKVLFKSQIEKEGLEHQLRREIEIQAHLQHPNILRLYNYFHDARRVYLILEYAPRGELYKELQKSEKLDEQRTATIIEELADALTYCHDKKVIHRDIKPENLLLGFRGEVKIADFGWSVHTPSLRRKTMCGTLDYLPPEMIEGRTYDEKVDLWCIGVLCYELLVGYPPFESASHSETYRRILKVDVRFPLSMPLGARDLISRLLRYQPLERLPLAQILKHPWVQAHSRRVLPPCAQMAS
Structure (SMILES),remaining activity [%]
Nc1ncnc2c1cnn2-c1ccccc1,98.2
N#CC(=C(N)Sc1ccc(N)cc1)c1ccccc1C(F)(F)F,97.5
CCc1[nH]c(-c2ccc(OC)cc2)nc1-c1ccncc1,97.4
COc1cc(Nc2c(C#N)cnc3cc(OCCCN4CCN(C)CC4)c(OC)cc23)c(Cl)cc1Cl,82.1
CC#CC(=O)Nc1cc2c(Nc3ccc(F)c(Cl)c3)ncnc2cn1,95.9
CSc1nc(-c2ccnc(N[C@@H](C)c3ccccc3)c2)c(-c2ccc(F)cc2)[nH]1 (racemic),100
NC(=O)c1ccc(N(C(N)=O)c2c(F)cccc2F)nc1-c1ccc(F)cc1F,83.8
Cc1cc(Nc2nc(-c3ccccc3)nc3ccccc23)n[nH]1,51.8
CC(C)(C)n1nc(Cc2cccc3ccccc23)c2c(N)ncnc21,93.2
CC(=O)c1ccc(N2CCOCC2)cc1O,104
Cc1cncc2cccc(S(=O)(=O)N3CCCN(C(=O)CN)C[C@@H]3C)c12,71.9
Nc1nccc(-c2c(-c3ccc(F)cc3)ncn2C2CCNCC2)n1,97.8
Oc1ccc(Nc2nc(-c3ccc(Cl)cc3)cs2)cc1,97
O=C1NC(=O)C(c2c[nH]c3ccccc23)=C1c1c[nH]c2ccccc12,101
Fc1ccc(-c2nc3n(c2-c2ccncc2)CCS3)cc1,102
CCCC(=O)Oc1ccc2[nH]c(C(=O)c3cc4ccccc4[nH]3)cc2c1,94.9
CC[n+]1c(/C=C/N(C)c2ccccc2)n(-c2ccccc2)c2ccc(-c3nc4ccccc4s3)cc21,91.3
Nc1nc(Nc2ccc(S(N)(=O)=O)cc2)nn1C(=O)c1c(F)cccc1F,28.3
O=S(=O)(NCCNC/C=C/c1ccc(Br)cc1)c1cccc2cnccc12,89

# Single results of other studies
Structure (SMILES),cell line,assay,setting,quantity,value
Cn1cncc1[C@@](O)(COc1ccc(C#N)cc1-c1ccc(OC(F)(F)F)cc1)c1ccc(C#N)cc1,HEK293T,high-content imaging,"10 µM, 0 h",normal cells,93.4% and 85.1%

# Excerpt of the above (block 3):
Structure (SMILES),remaining activity [%]
Nc1nccc(-c2c(-c3ccc(F)cc3)ncn2C2CCNCC2)n1,97.8
Oc1ccc(Nc2nc(-c3ccc(Cl)cc3)cs2)cc1,97
O=C1NC(=O)C(c2c[nH]c3ccccc23)=C1c1c[nH]c2ccccc12,101
Fc1ccc(-c2nc3n(c2-c2ccncc2)CCS3)cc1,102
CCCC(=O)Oc1ccc2[nH]c(C(=O)c3cc4ccccc4[nH]3)cc2c1,94.9
CC[n+]1c(/C=C/N(C)c2ccccc2)n(-c2ccccc2)c2ccc(-c3nc4ccccc4s3)cc21,91.3
